# Measurements collected from several papers.
# Protocols differ between the studies behind these lines.
SMILES,assay,system,conditions,measurement,value
NCc1cc2c(cc1F)C(=O)N(C1CCC(=O)NC1=O)C2 (centres unmarked),,"male CD-1 mouse, plasma","oral, 10 mg/kg, 4 h",concentration,16.3 ng/mL
COc1ccc2c(c1)CN(C(=O)CCN1CCC(Cc3ccccc3)CC1)CC[S@@+]2[O-],,"male human, plasma","intravenous, 0.15 mg/kg, healthy volunteers",AUC(0-t),675 ng·h/mL
CCc1cc(-c2noc(-c3cc(OC)nc(C4CCCC4)c3)n2)cc(C)c1OC[C@@H](O)CO,,"Wistar rat, plasma","oral, 1 mg/kg, 48 h, single dose",concentration,5.5 ng/mL
O=c1c2ccc(Oc3ccc(OC(F)(F)F)cc3)cc2[nH]c2ccc(Cl)c(F)c12,metabolic stability,"mouse, liver microsomes","1 µM, pH 7.4",microsomal CLint,1.26 µL/min/mg
N=C(N)c1ccc(OCc2ccc(Br)cc2COc2ccc(C(=N)N)cc2)cc1,haemolysis,sheep,"200 µg/mL, 1 h",haemolysis,12%
c1ccc(C2CCN(c3nc(-c4cnn5cccnc45)nc4ccccc34)C2)nc1 (centres unmarked),,PAMPA,"10 µM, 3 h, pH 7.4",Papp,22.4 ×10⁻⁶ cm/s
Nc1ccc(C=Cc2ccc([125I])cc2)cc1,,"Swiss mouse, brain","intravenous, 5 µCi, 30 min",tracer uptake,2.65 %ID/g
c1ccc(C2CCN(c3nc(-c4ccn[nH]4)nc4ccccc34)C2)nc1 (centres unmarked),metabolic stability,"mouse, liver microsomes",,microsomal CLint,268 µL/min/mg
COc1ccc([C@@H](O)c2cc(-c3ncnc4cc(N5CCOCC5)ccc34)c(F)cc2Cl)nn1,,"human, plasma","oral, 200 mg, multiple doses, twice daily, patients",AUC(0-t),14200 ng·h/mL
COc1cccc(-c2n[nH]c(SCc3ccccn3)n2)c1OC,,"male Sprague-Dawley rat, plasma","oral, 10 mg/kg, 8 h, single dose",concentration,25.6 ng/mL
CC(=O)[O-].CC(=O)[O-].CC(=O)[O-].[177Lu+3],,"mouse, liver",1 h,tracer uptake,72 %ID/g
c1ccc(-c2nc(N3CCCC(c4ccccn4)C3)c3ccccc3n2)nc1 (centres unmarked),,PAMPA,"10 µM, 3 h, pH 7.4",Papp,34.6 ×10⁻⁶ cm/s
NCCOCC(=O)N1CCC[C@H](C(=O)NCc2nc(-c3ccc(C4CC4)cc3)cs2)C1,metabolic stability,"male Sprague-Dawley rat, liver microsomes",0.5 µM,microsomal CLint,< 3 µL/min/mg
FC(F)(F)c1ccccc1-c1nc(N2CCC(c3ccccn3)C2)c2ccccc2n1 (centres unmarked),,PAMPA,"10 µM, 3 h, pH 7.4",Papp,38 ×10⁻⁶ cm/s
CCC(C)n1ncn(-c2ccc(N3CCN(c4ccc(OCC5COC(Cn6cncn6)(c6ccc(Cl)cc6Cl)O5)cc4)CC3)cc2)c1=O (centres unmarked),metabolic stability,"human, hepatocytes","0.5 µM, pH 7.4",hepatocyte CLint,36.6 µL/min/10⁶ cells
COc1ccc(CNc2nc(-c3ccc(C(=O)O)cc3)nc3c2c2ccccc2n3C)cc1Cl,,,,logP,6.55
N=C(N)c1ccc(OCCC(CCOc2ccc(C(=N)N)cc2)c2ccccc2)cc1 (centres unmarked),haemolysis,sheep,"200 µg/mL, 1 h",haemolysis,0.5%
Fc1cccc(Nc2nc(-c3ccccn3)nc3ccccc23)c1,metabolic stability,"mouse, liver microsomes",,microsomal CLint,215 µL/min/mg
CC[C@H](C)[C@@H]1NC(=O)[C@@](C)(NC(=O)[C@H](CCCNC(=N)N)NC(=O)[C@H](CC(C)C)NC(=O)[C@@H](NC(=O)[C@H](CCC(N)=O)NC(=O)[C@H](CC(C)C)NC(C)=O)[C@@H](C)O)CCCC=CCCC[C@@](C)(C(=O)N[C@@H](CC(C)C)C(=O)N[C@@H](Cc2ccc3ccccc3c2)C(N)=O)NC(=O)[C@H](CCCNC(=N)N)NC(=O)[C@H](CCC(N)=O)NC1=O,,"male BALB/c mouse, plasma","intravenous, 15 mg/kg",AUC,160 µM·h
N=C(N)c1ccccc1OCc1ccc(COc2ccccc2C(=N)N)cc1,haemolysis,sheep,"200 µg/mL, 20 h",haemolysis,0%
CCOCC(=O)N1C2CCC(C(=O)NCc3nc(-c4ccc(C#N)cc4)cs3)C1CC2 (centres unmarked),metabolic stability,"male Sprague-Dawley rat, liver microsomes",0.5 µM,microsomal CLint,130 µL/min/mg
O=C(COc1ccc(Cl)cc1)NC12CC(c3nnc([C@H]4C[C@@H](OC(F)(F)F)C4)o3)(C1)C2,,"human, plasma","oral, 100 mg, multiple doses, once daily, healthy volunteers",half-life,2470 min
CCN1CCN(Cc2ccc(NC(=O)c3ccc(C)c(NC(=O)c4cncc(-c5cccs5)c4)c3)cc2C(F)(F)F)CC1,,"mouse, plasma","intraperitoneal, 30 mg/kg, single dose",MRT,4.12 h
Cc1noc(C)c1Cn1cc(N2C(=O)CN(Cc3cccc(O)c3)C2=O)cn1,,"male Sprague-Dawley rat, plasma","oral, 10 mg/kg, 15 min",concentration,11.3 ng/mL
CCOC(=O)C1=C(CN2CCC[C@@H]2C(=O)Nc2ccc(B(O)O)cc2)NC(c2nccs2)=N[C@H]1c1ccc(F)cc1Br,,"CD-1 mouse, plasma","intravenous, 2 mg/kg",MRT(0-t),32.4 min
Cc1cc(=O)n(-c2ccccc2)n1C,metabolic stability,"Sprague-Dawley rat, hepatocytes","0.5 µM, pH 7.4",hepatocyte CLint,1.8 µL/min/10⁶ cells
COc1cc2c3c(n(CCCN4CCOCC4)c(=O)c2cc1OC)-c1cc2c(cc1C3=O)OCO2,,"male beagle dog, plasma","intravenous, 100 mg/m², infusion",AUC(0-inf),1850 ng·h/mL
CCc1nc2c(C)cc(N3CCN(CC(=O)N4CC(O)C4)CC3)cn2c1N(C)c1nc(-c2ccc(F)cc2)c(C#N)s1,,"human, plasma","oral, 600 mg, fed, healthy volunteers",Cmax,8200 ng/mL
O=C1CC[C@H](N2Cc3cc(N4CCN(CC5CCN(c6ccc([C@@H]7c8ccc(O)cc8CC[C@@H]7c7ccccc7)cc6)CC5)CC4)ccc3C2=O)C(=O)N1,,"female Sprague-Dawley rat, plasma","oral, 20 mg/kg, fasted",AUC(0-inf),11300 ng·h/mL
O=C(c1ccc(F)cc1)C1CCN(CCn2c(=O)[nH]c3ccccc3c2=O)CC1,"metabolic stability, mass spectrometry","mouse, liver microsomes",1 h,compound remaining,12.5%
CCOCC(=O)N1CCC[C@H](C(=O)NCc2nc(-c3ccc(C#N)nc3)cs2)C1,metabolic stability,"human, liver microsomes",0.5 µM,scaled CLint,12 mL/min/kg
COc1ccccc1-c1nc(N2CCC(c3ccccn3)C2)c2ccccc2n1 (centres unmarked),,PAMPA,"10 µM, 3 h, pH 7.4",Papp,23.9 ×10⁻⁶ cm/s
O=c1c2c(F)cc(Cl)cc2[nH]c2cccc(Oc3ccc(OC(F)(F)F)cc3)c12,metabolic stability,"mouse, liver microsomes","1 µM, pH 7.4",microsomal CLint,12.2 µL/min/mg
Cn1nc2c(=O)n(C3CC3)ccc2c1[C@](O)(c1cnc(C(F)(F)F)c(Cl)c1)C1CC1,metabolic stability,"male Sprague-Dawley rat, hepatocytes","0.5 µM, pH 7.4",hepatocyte CLint,< 1 µL/min/10⁶ cells
CCOC(=O)[C@@]12C[C@@H]1[C@@H](n1ccc3c(NC)nc(C#Cc4ccc(Cl)s4)nc31)[C@H](O)[C@@H]2O,,"male Sprague-Dawley rat, plasma","oral, 10 mg/kg, 12 h",concentration,3.84 ng/mL
CC(C)(O)c1ccccc1CC[C@@H](SCC1(CC(=O)O)CC1)c1cccc(/C=C/c2ccc3ccc(Cl)cc3n2)c1,metabolic stability,"human, hepatocytes","0.5 µM, pH 7.4",hepatocyte CLint,11.4 µL/min/10⁶ cells
CCCCCOC(=O)Nc1nc(=O)n([C@@H]2O[C@H](C)[C@@H](O)[C@H]2O)cc1F,,Caco-2,4 h,efflux ratio,4.42
Cn1nc2c(=O)n(C3CC3)ccc2c1[C@](O)(c1cnc(C(F)(F)F)c(Cl)c1)C(F)(F)F,,Caco-2,,Papp B→A,75.3 ×10⁻⁶ cm/s
N#Cc1ccccc1-c1nc(N2CCC(c3ccccn3)C2)c2ccccc2n1 (centres unmarked),,PAMPA,"10 µM, 3 h, pH 7.4",Papp,35.8 ×10⁻⁶ cm/s
N#C[C@@]12C[C@@H]1[C@@H](n1cnc3c(N[C@@H](C4CCC4)C4CC4)nc(I)nc31)[C@H](O)[C@@H]2O,,"male Wistar rat, plasma","oral, 10 mg/kg",Cmax,95.6 ng/mL
Cc1nn(C2CC2)c(=O)c2nn(C)c(Cc3ccc(C(F)(F)F)c(C#N)c3)c12,metabolic stability,"male Sprague-Dawley rat, hepatocytes","0.5 µM, pH 7.4",hepatocyte CLint,1 µL/min/10⁶ cells
